{"data": "Measured values pooled from the literature", "note": "Each line is one published result; not all experiments were run side by side. Several values in a cell are separate wells, animals, samples, runs or records. ± marks the error that the study gave."}
{"Structure (SMILES)": "CNC(=S)N/N=C/c1ccc(OCc2ccccc2)cc1", "cell line": "IMR-32", "setting": "500 µg/mL, 24 h", "how to read": "higher = more activity", "quantity": "catalase activity (OD450)", "result": "0.086 a.u."}
{"Structure (SMILES)": "C[C@H]1O[C@@H]2C3=C(O[C@]2(C)[C@@]1(O)C=O)C(=O)c1c(O)cccc1C3=O", "cell line": "MDA-MB-231 and Vero", "test": "MTT", "how to read": "reference: CC50 Vero over EC50 MDA-MB-231", "quantity": "selectivity index", "result": 2.67}
{"Structure (SMILES)": "CC(C)(C)C(=O)OCOP(=O)(OCOC(=O)C(C)(C)C)C1CCCN(O)C1=O (stereo not shown)", "cell line": "M14", "quantity": "GI50", "result": "0.693 µM"}
{"Structure (SMILES)": "CSCC[C@H](NC(=O)[C@@H](NC(=O)[C@H](CCC(N)=O)NC(=O)[C@H](CO)NC(=O)[C@@H](N)C(C)C)[C@@H](C)O)C(=O)N[C@@H](CCCNC(=N)N)C(=O)N[C@@H](CCC(N)=O)C(=O)N[C@H](C(=O)N[C@@H](C)C(=O)N[C@H](C(=O)N1CCC[C@H]1C(=O)N[C@@H](CC(C)C)C(=O)N[C@@H](CC(C)C)C(=O)N[C@@H](Cc1c[nH]c2ccccc12)C(=O)N[C@@H](Cc1ccccc1)C(=O)N[C@@H](Cc1c[nH]c2ccccc12)C(=O)N[C@H](C(=O)NCC(=O)N[C@@H](CO)C(=O)N[C@@H](CC(C)C)C(=O)NCCOCCOCCOCCOCCOCCOCCOCCOCCOCCOCCOCCOCCC(=O)N[C@@H](CS)C(N)=O)[C@@H](C)O)C(C)C)[C@@H](C)O", "cell line": "H1355 lung adenocarcinoma", "test": "cell binding, phage binding, measured: output/input phage", "setting": "10 min, 37 °C", "how to read": "reference: control phage", "quantity": "selectivity ratio", "result": "6.4 ± 3.9"}
{"Structure (SMILES)": "O=C(Nc1cccs1)c1cccnc1", "cell line": "HCT-116 Cas9-expressing", "test": "cell growth, genome-wide CRISPR knockout screen", "setting": "50 nM, 30 d, Nam-free DMEM, unit not given", "how to read": "reference: vehicle, fewer doublings versus vehicle", "quantity": "population doublings", "result": 7.6}
{"Structure (SMILES)": "Cc1cc(=O)oc2cc(OCCCCCC[Se]C#N)ccc12", "cell line": "MIA PaCa-2", "test": "cell growth or viability, SRB", "quantity": "GI50", "result": "4 µM"}
{"Structure (SMILES)": "COc1ccc2c(c1)c(CC(=O)[Se]CC(=O)Nc1cccc(C(F)(F)F)c1)c(C)n2C(=O)c1ccc(Cl)cc1", "cell line": "NCI60 CNS subpanel", "test": "NCI60 five-dose screen", "quantity": "CC50", "result": "6.56 µM"}
{"Structure (SMILES)": "COc1ccccc1-c1ccncc1C(=O)Nc1nnc(OCc2ccc(Cl)cc2)s1", "cell line": "RPE-1 BRCA1 WT parental", "setting": "0.5 µM, average of 2 runs", "how to read": "reference: untreated", "quantity": "colony survival", "result": "83.9%"}
{"Structure (SMILES)": "O=C(C[Se]C(=O)c1ccco1)Nc1cccc(C(F)(F)F)c1", "cell line": "NCI60 colon subpanel", "test": "NCI60 five-dose screen", "quantity": "GI50", "result": "6.07 µM"}
{"Structure (SMILES)": "COc1ccc(NC(=O)c2ccc3[nH]c(-c4ccc(N(C)C)cc4)nc3c2)cn1", "cell line": "HCT116", "test": "IncuCyte", "setting": "concentration not given, 0 (unit not given)", "quantity": "PI-positive cells", "result": "2.58 count and 3.25 count and 3.42 count"}
{"note": "Some of these lines once more:"}
{"Structure (SMILES)": "CNC(=S)N/N=C/c1ccc(OCc2ccccc2)cc1", "cell line": "IMR-32", "setting": "500 µg/mL, 24 h", "how to read": "higher = more activity", "quantity": "catalase activity (OD450)", "result": "0.086 a.u."}
